Published values gathered from unrelated publications.
Numbered parts are unrelated; each lists some results of a single study.

Series 1
Target: Ras GTPase-activating protein-binding protein 1, full length (G3BP1, Homo sapiens, UniProt Q13283)
Sequence of UniProt Q13283 (whole entry, looked up): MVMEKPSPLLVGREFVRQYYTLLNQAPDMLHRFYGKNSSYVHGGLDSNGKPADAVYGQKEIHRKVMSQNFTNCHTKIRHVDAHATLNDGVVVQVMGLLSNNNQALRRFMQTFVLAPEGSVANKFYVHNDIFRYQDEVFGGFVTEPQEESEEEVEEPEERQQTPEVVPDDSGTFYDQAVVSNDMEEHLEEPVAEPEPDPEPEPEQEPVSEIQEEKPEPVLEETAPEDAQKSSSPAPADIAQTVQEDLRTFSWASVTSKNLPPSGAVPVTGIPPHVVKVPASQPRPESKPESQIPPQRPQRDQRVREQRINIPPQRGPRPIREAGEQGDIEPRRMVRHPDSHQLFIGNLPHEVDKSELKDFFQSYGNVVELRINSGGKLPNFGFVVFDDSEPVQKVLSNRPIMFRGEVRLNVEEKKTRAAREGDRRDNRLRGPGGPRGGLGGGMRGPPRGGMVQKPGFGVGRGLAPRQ
Method: RNA Bind-n-Seq
Form: RNA
Medium: in vitro
Tested at: 200 nM
Notes: whole 134-nt RNA, ends assumed
Together with: 150 mM LiCl
Baseline: input library
Direction: higher = stronger binding
Each molecule: 7-deaza-guanosine replaces G
Shared flanks, not repeated: GGGAGUUCUACAGUCCGACGAUC … UGGAAUUCUCGGGUGUCAAGG
Oligonucleotide | log2 enrichment
UCAAGUCCUGUGCUACACAUCGUAUGUACCGAAUCGGUUUUUGGUUUUUGGUGGAAAGUAUUAUGUUACGCCGUUCGGAUCUGCACUUCC | -0.698
UUCCUCAAGUCCUGUGCUACACAUCGUAUGUACCGAAUCGGCGGCGGCGGAAAGUAUUAUGUUACGCCGUUCGGAUCUGCACUUCCAGCA | 0.906
ACCACGCAGGUGGGCAUCUUUGGGAAGUGGGGCAAGGGGGGGAUAGGGAGGGGGGUAACACUUUGGGAACAGGUGGUCCCAGGUCGUUUC | -0.0498
CAAGUCCUGUGCUACACAUCGUAUGUACCGAAUCGGGAGGGAGGGAAAAAAAGGGAAAGUAUUAUGUUACGCCGUUCGGAUCUGCACUUC | -0.0454
AGUGGGUUUGUUGAAGCAGUUGCUGGUGCAACAGCUAGGUUUGACUGAGAAGAGCGUUCAGGAAGACUGGCAACAUUUCCCAAGAUACAG | -2.69
UACCUGAUCAAUGACAGAGCCUUCUGAGGACAUUCCAAGACAGUAUACAGUCCUGUGGUCUCCUUGGAAAUCCGUCUAGUUAACAUUUCA | -1.13
GUCCUGUGCUACACAUCGUAUGUACCGAAUCGGGGUUUUGGGUUUUGGGGUUUUGGGGAAAGUAUUAUGUUACGCCGUUCGGAUCUGCAC | 0.17
AAGUCCUGUGCUACACAUCGUAUGUACCGAAUCGGGGAGGGGUGGGGUUUUUGGGGAAAGUAUUAUGUUACGCCGUUCGGAUCUGCACUU | 0.0815
GCAGGAAGUAAAAACAAAUAAAAAUGCUUCGGAUAGUGGCAGGGGUGGGGGUUGCUAAGGAAAGGGUGGGAUGGGAGUGGGUAAAGAGUU | -0.135
AAGUCCUGUGCUACACAUCGUAUGUACCGAAUCGGUUUUUUUGGAAAAAAAGGUGGAAAGUAUUAUGUUACGCCGUUCGGAUCUGCACUU | -2.39
AAGUCCUGUGCUACACAUCGUAUGUACCGAAUCAAAUUUAAAUUUAAACCCCCAAAAAAGUAUUAUGUUACGCCGUUCGGAUCUGCACUU | 1.33

Series 2
Target: Interferon regulatory factor 5, full length, phosphomimetic (IRF5, Homo sapiens, UniProt Q13568-2, residues 1-514, K96S/S451D/S453D/S456D/S462D)
Method: protein-binding microarray
Form: double-stranded DNA, one strand shown
Medium: in vitro
Tested at: 250 nM
Notes: 60-bp whole probe
Together with: salmon DNA 0.4 mg/ml
Baseline: random background probes
Direction: higher = stronger binding
Shared flanks, not repeated: GCCTAGCAC … GTCTTGATTCGCTTGACGCTGCTG
Oligonucleotide | log fluorescence [z-score]
AGCAAATTATATCTTATATCGTGCTAG | 0.729
GACGATTTCGGGTTCCGAGACGTGCTA | 3.42
GGCGATATCGGGACTGGAGACGTGCTA | 0.611
TTAGAAATCGGGACTGGATTAGTGCTA | 0.189
TACGGACTGCTTTTCCTGACGTGCTAG | -0.365
TTAGGTTTCGACGCTGGGTTAGTGCTA | 5.2
TTAGATTTCGGGTATCGATTAGTGCTA | 7.65
TTAGATATCGGGTATCGACTAGTGCTA | 3.82
GACGGTATCGGGTATCGTGACGTGCTA | 2.8
TTATGTCTCGGACTGGGTTAGTGCTAG | 0.00824
GTCGGACTGGACACTGGGGACGTGCTA | -0.742
GGCGAACTGAGACTGGAGACGTGCTAG | -0.545
CACGGACTGGGTCTCGGGACGTGCTAG | -0.668
GACGGTTTCCTTCTCCTAACGTGCTAG | 1.26
TTAGAGATCGGGTTTCGATTAGTGCTA | 6.8
TTAGGTATCGGGACTGGGTTGGTGCTA | 1.7
GACGGTTTCGGTTCCGGGGCGTGCTAG | 9.9
GACGGTCTCCTACTGCTCACGTGCTAG | -0.351
TTAGATATCAGTTTCGATTTGTGCTAG | 9.62
TCATCTCTCTTTCCACTACTGTGCTAG | 1.03

Series 3
Target: Myc proto-oncogene protein, bHLH-zipper, MAX partner unstated (MYC, Homo sapiens, UniProt P01106, residues 368-449)
Sequence of UniProt P01106 (368-449, looked up): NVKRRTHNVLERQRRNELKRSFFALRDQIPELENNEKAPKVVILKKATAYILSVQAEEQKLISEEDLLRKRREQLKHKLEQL
Method: protein-binding microarray
Form: double-stranded DNA, one strand shown
Medium: in vitro
Tested at: not given
Notes: k-mer, scored over probes, only values ≥0.25
Direction: higher = stronger binding
Oligonucleotide | E-score
CGAGCCAC | 0.321
CAGGTGGA | 0.297
CAATGCGG | 0.28
GGCATGGA | 0.331
CACCGCGC | 0.292
ACAGGTGG | 0.342
CCCCGGCA | 0.253
CTCCCCTC | 0.29
CCCCCTGC | 0.25
ATGGGCGC | 0.27
CCCCACCC | 0.314
ACGCGGCC | 0.309
ACGCACAC | 0.345
GCCCCACC | 0.319
CATGACAC | 0.326
GTCATGCA | 0.267
CTCGTGCC | 0.406
AATCACGT | 0.276
GCACAGCC | 0.289
ACGCGAGT | 0.282
CCACGCTC | 0.387
ATGGCGCG | 0.256
CGCAACAC | 0.252
CACGAGCA | 0.305
CGCGGGGA | 0.276

Series 4
Target: RNA binding protein fox-1 homolog 2, RRM domain, GST-SBP tag (RBFOX2, Homo sapiens, UniProt O43251-10, residues 100-194)
Method: RNA Bind-n-Seq
Form: RNA
Medium: in vitro
Tested at: 365 nM
Notes: natural RNA segment, single round, ends assumed
Baseline: no-protein control
Direction: higher = stronger binding
Shared flanks, not repeated: GGGAGUUCUACAGUCCGACGAUC … UGGAAUUCUCGGGUGCCAA
Construct (chain): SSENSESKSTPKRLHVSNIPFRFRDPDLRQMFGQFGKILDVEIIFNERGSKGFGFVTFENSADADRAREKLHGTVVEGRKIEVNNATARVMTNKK
Oligonucleotide | RBNS enrichment (R)
GGUGCUGUGACUCCUGCUGCUGGGGAUUUAUGUCCCGAGACCUUAGCCUGGCUGAGUGGAGCCUGAGACCUGCACAACAGCUCAUGGUCAUGCAUGAGAGAGAAGUGGCU | 0.398
UUGUCCUUACUCUUGACUCCAUCCAGAAAAGAACCAGCAUCUGCAAACGCCAUGGGUGCCGUCAGCGAGCGAAGCCUCUCGUGUCGGCUGAUAAAAGCCAGUGGCAGCUG | 0.306
CUCACGGAUUAGGAAUUAACAGCCAAAGGCUCCCACGGAAGGGACCAGAAGGGGCUGAGCCCCACCCUGGAGUGGGCUUGCACCUGGUAGGUGUGCAAGAAGCCAUUUCC | 0.315
CCCUCAUGUUUGCUGGGACACUGCUGAGCACCCCUUGCUUACUUAGCUCAGUGAUGUUCCAGCUCCUGGCUAGGCUGCUCAGCCACUCAGCUAGACAAAAGAUCUGUGCC | 0.424
GAUGCCAAGACCUUAGCCCCAAGGGGAGAUUUCCAAACUCUUAAAAAUGAAGGCUCCCAUGAGUCUUCACUAGAAAGAUGUGGUCCCCAUCCCCACCCUGACUGAGACCU | 0.296
AAGAUCACACCACUGCACUCCAGCCUGGGCGACAGAGGGAGACACUGUCUCCAAAAGAAAGAAAUCCCAGCGUAGAUCCAAACUGAGACACUGAGGCUUCGUCCUUAUAG | 0.179
AAGUAGUUUAAAUGAGGGAAAGGAAAAUGCAGACCACAUCUUGCCUGCCUCGUAAGCGUUUCCUCCCUGAAUUGAAGUACAUAGGCUAAUAUAUUAUUUUGUAGUAUCUC | 1.8
CUCCCUACUGCGCCCCUGUAGGCAGGAGGAAGCAGCCCAUCAGCCUAGGAAGCCAACAGCAGGGCAGGUCAACUGUAGCUUAACCUUUAGAGCUCUUCAAGGUGCAGGGA | 0.45
UGUGGGAGCCCGAGGACGCAGACUCGAGUUCCGCUUGGUCACUGUGAUUUCUGUUUUGUCUACAGACUCUUAACAAACCUCAGGAAAACUGUCCCUCUACCAGUUACCUU | 0.42
CAGAACACAGGGAGAUGAUGUGGCGUGGAUGUGGGCAGCUGGGGCUCCAUUGGCUAAGAUAGAACACUUAAAAACACUUUUCUCCCCCUUGUUGGGAGUGCUUUAUUUUU | 0.678
CCCCGUGAGACGGGGCUUCUGUGUGACCCUUACUUCCUCUGCACACUGGGACCCUUGAGCCAAGGGCAGUCCCUACCAGGUGCCCAAGCCGCAAGUCUCAGGGGGCUUUU | 0.348
GGAGUUGGUGGGGGAGGGAUGGGUAUUAUAUAAAGAGACCCCUCCCCUUAUUUUGUGUUUUCCAUCCCUCUCCCUUAACAGGAUUGAAAUAAAACAUGCUUCUGUUUUUG | 0.479

Some of these lines once more (series 3):
Oligonucleotide | E-score
CCCCGGCA | 0.253
ACGCGGCC | 0.309
CAATGCGG | 0.28
CTCGTGCC | 0.406
